# Measurements gathered from unrelated publications.
# Each line is one published result; not all experiments were run side by side. “And” joins repeats or separate records; there may be more than shown. ± gives the spread as reported.
Substance,target,assay,system,setting,scale,endpoint,value
CC(=O)OCC[N+](C)(C)C,muscarinic acetylcholine receptor (Aquarana catesbeiana),"IK(M) current, agonist, whole-cell patch clamp",bullfrog atrial myocytes,,,EC50,0.159 µM
CC(C)[C@@H]1NC(=O)c2coc(n2)-c2coc(n2)-c2coc(n2)C/C=C/c2coc(n2)-c2coc(n2)-c2coc1n2,human telomeric quadruplex d(TTAGGG)4,UV melting,,"20 µM, pH 7.5, with: 50 mM K+",reference: DNA without compound,melting temperature shift,36.9 °C
Cn1sc(Cl)cc1=O,cysteine peptide Ac-RFAACAA-COOH,DPRA RapidFire-MS/MS,,"24 h, pH 7.5, with: 5.0 µM cysteine peptide",,maximal peptide depletion,-122%
COc1cc2c3c(cc4ccccc4c3c1OC)N(C)CC2,pre-miR-21 RNA,differential scanning fluorimetry,,,"reference: untreated, positive = stabilisation",maximal ΔTm,-15.7 °C
O=C1N[C@@H](Cc2ccccc2)C(=O)NCc2coc(n2)-c2coc(n2)-c2cccc(c2)-c2cccc(c2)-c2nc(co2)-c2nc1co2,human telomeric quadruplex d(TTAGGG)4,UV melting,,"20 µM, pH 7.5, with: 50 mM K+",reference: DNA without compound,melting temperature shift,2.8 °C
CCCCCCCC(=O)O,cysteine peptide Ac-RFAACAA-COOH,DPRA RapidFire-MS/MS,,"24 h, pH 7.5, with: 5.0 µM cysteine peptide",,maximal peptide depletion,-25.4%
Cc1ccccc1N=Nc1ccc(NC(=O)c2ccnn2C)c(C)c1,aryl hydrocarbon receptor,"inhibitor, immunoblot",HT-29,"5 µM, with: 12.5 µM GarD + 50 µM tBHP",,ZO-1 and occludin level,decreased
Nc1nc2c(ncn2[C@@H]2O[C@H](COP(=O)(O)OP(=O)(O)OP(=O)(O)O)[C@@H](O)[C@H]2O)c(=O)[nH]1,volume-regulated anion channel,,,with: total nucleotide 1 mM,,Kd,410 µM
COC(=O)C1=C(C)NC(C)=C(C(=O)OC)C1c1ccccc1[N+](=O)[O-],"T-type calcium channel, guinea pig","calcium current, blocker, whole-cell patch clamp",guinea pig atrial myocytes,,,Kd,0.1 µM
COc1ccc(CCCOC(Cn2ccnc2)c2ccc(OC)cc2)cc1 (stereo not shown),muscarinic receptor-gated TRPC4 channel (mouse),"receptor-gated current, inhibitor, whole-cell patch clamp",,"10 µM, holding potential -60 mV, with: 100 µM carbachol",,inhibition,55.5 ± 5.6%
CC(C=O)Cc1ccc(C(C)(C)C)cc1 (stereo not shown),cysteine peptide Ac-RFAACAA-COOH,DPRA RapidFire-MS/MS,,"24 h, pH 7.5, with: 5.0 µM cysteine peptide",,maximal peptide depletion,-15.4%
CC(C)(C)c1cc(C(C)(C)C)c(NC(=O)c2c[nH]c3ccccc3c2=O)cc1O,CFTR G1244E human,"short-circuit current, potentiator",CFBE,"14.44 µM, with: forskolin 20 µM",reference: PKA-activated wild type,CFTR activity,25.1 ± 6%
IINFEKL,ERAP1 human L734R,activator,peptide,"100 µM, pH 8.0, 27 °C, with: L-AMC substrate",,Vmax of L-AMC hydrolysis,351 ± 5 nmol/min/µg
CN(C)CCc1cc2cc(c1)CNC(=O)c1coc(n1)-c1coc(n1)-c1cccc(n1)-c1nc(co1)-c1nc(co1)C(=O)NC2,human telomeric quadruplex d(TTAGGG)4,UV melting,,"20 µM, pH 7.5, with: 50 mM K+",reference: DNA without compound,melting temperature shift,35.9 °C
OO,bovine lens protease,,,"0.5 mM, 37 °C",,remaining activity,48%
N[C@@H](CCC(=O)Nc1ccc(F)cc1)C(=O)O,glutamate transporters,,PC-3,"concentration not given, 5 min, 37 °C, with: [3H]-L-glutamate 150 µM",reference: basal uptake,[3H]-L-glutamate uptake,101 ± 13%
c1cnc2c(c1)ccc1cccnc12,bovine lens protease,,,"1 mM, 37 °C",,remaining activity,1%
Nc1nc2c(ncn2[C@@H]2O[C@@H]3COP(=O)(O)O[C@H]3[C@H]2O)c(=O)[nH]1,"rod cyclic nucleotide-gated channel, Ambystoma tigrinum","ion current, agonist, inside-out patch clamp",,"after EDTA/EGTA exposure, with: calmodulin 200 nM, Ca2+ 20 µM, Mg2+ 100 µM",,Hill coefficient,2.44 and 2.47
CC(=O)N[C@@H](CC(N)=O)C(=O)NCC(=O)N[C@@H](CCCCN)C(=O)N[C@@H](C)C(N)=O,Asn-Gly peptide isomerisation to succinimide,1H NMR time course,,"pH 7.4, 55 °C",,rate constant k1,0.232 h⁻¹
CN1C(=O)C=CC1=O,bovine lens protease,"enzyme activity, inhibitor",,"concentration not given, 30 min preincubation, 37 °C",,inhibition,~88% and 88%
Cc1cccc(-c2[nH]c(C(C)(C)C)nc2-c2ccc3nccnc3c2)n1,ERK1/2 (rat),"inhibitor, Western blot",NRK-52E,"1 µM, 15 min, with: TGF-beta 5 ng/mL",,ERK1/2 phosphorylation,inhibited
IINFEKE,ERAP1 human wild type,activator,peptide,"100 µM, pH 8.0, 27 °C, with: L-AMC substrate",,K1/2 of L-AMC,0.34 ± 0.08 mM
CCCC[C@H]1CCCCCCc2[nH]c(/C=C3\N=CC(c4ccc[nH]4)=C3OC)cc21,pre-miR-21 RNA,differential scanning fluorimetry,,,"reference: untreated, positive = stabilisation",maximal ΔTm,3.1 °C
CC(C)[C@@H]1NC(=O)c2coc(n2)-c2coc(n2)-c2coc(n2)[C@H](CCN(C)C)NC(=O)c2coc(n2)-c2coc(n2)-c2coc1n2,human telomeric quadruplex d(TTAGGG)4,UV melting,,"20 µM, pH 7.5, with: 50 mM K+",reference: DNA without compound,melting temperature shift,37.4 °C
O=C(O)c1ccc2c(c1)C(=O)OC2=O,cysteine peptide Ac-RFAACAA-COOH,DPRA RapidFire-MS/MS,,"24 h, pH 7.5, with: 5.0 µM cysteine peptide",,peptide depletion,inactive
CC(=O)N[C@@H](CC(=O)O)C(=O)N[C@@H](CC(C)C)C(=O)N[C@@H](Cc1c[nH]c2ccccc12)C(=O)N[C@@H](CCCCN)C(=O)N[C@@H](CC(C)C)C(=O)NCCCOCCOCCOCCCNC(=O)CCCCCCCCCCS,anti-p53 antibody,"binding, AFM force spectroscopy",,first monolayer,,adhesion pull-off force,1.7e-10 ± 1.3e-11 N
O=C(OCc1ccccc1)c1ccccc1,cysteine peptide Ac-RFAACAA-COOH,DPRA RapidFire-MS/MS,,"24 h, pH 7.5, with: 5.0 µM cysteine peptide",,peptide depletion,inactive
C[N+](C)(C)CCOC(N)=O,G proteins,,GDP-free CHO-M2 membranes,"10 and 100 µM, faster fraction",reference: control,GDP dissociation rate increase,> 100 fold
CN1CCN(CCCN2c3ccccc3Sc3ccc(C(F)(F)F)cc32)CC1,anoctamin-1 rat,Ca2+-activated Cl- current,HEK293 transfected,"20 µM, 10 to 70 min, -70 mV",,current density,277 ± 52 pA/pF
Nc1ncnc2c1ncn2[C@@H]1O[C@H](COP(=O)(O)OP(=O)(O)NP(=O)(O)O)[C@@H](O)[C@H]1O,"rod CNG channel, Ambystoma tigrinum","ion current, inhibitor, inside-out patch clamp",,"500 µM, 1 min, closed channels, with: 100 µM genistein",,genistein inhibition,decreased
WHWNAWALPTHG,VEGFR-3 (human),"binding, ELISA",peptide,,,affinity constant,9.2 ± 2.1 µg/mL
COc1ccc(C(C)=O)cc1,cysteine peptide Ac-RFAACAA-COOH,DPRA RapidFire-MS/MS,,"24 h, pH 7.5, with: 5.0 µM cysteine peptide",,peptide depletion,inactive
O=C1Nc2ccc(Cl)cc2[C@@](C#CC2CC2)(C(F)(F)F)O1,GABAA receptor α2β2γ2,"current potentiation, positive allosteric modulator, whole-cell patch clamp",,with: GABA EC30,,EC50,8.4 ± 4.9 µM
CN(C)CCCN,cysteine peptide Ac-RFAACAA-COOH,DPRA RapidFire-MS/MS,,"24 h, pH 7.5, with: 5.0 µM cysteine peptide",,peptide depletion,inactive
CC(C)[C@@H]1NC(=O)c2coc(n2)-c2coc(n2)-c2cccc(c2)-c2cccc(c2)-c2nc(co2)-c2nc(co2)CNC1=O,human telomeric quadruplex d(TTAGGG)4,UV melting,,"20 µM, pH 7.5, with: 150 mM K+",reference: DNA without compound,melting temperature shift,4.1 °C
O=C(O)C(=O)O,cysteine peptide Ac-RFAACAA-COOH,DPRA RapidFire-MS/MS,,"24 h, pH 7.5, with: 5.0 µM cysteine peptide",,peptide depletion,inactive
O=c1c(O[C@@H]2O[C@H](CO)[C@@H](O)[C@H](O)[C@H]2O)c(-c2ccc(O)c(O)c2)oc2cc(O)cc(O)c12,Sult1a1 (rat),"western blot, measured: SULT1A1","rats, liver","intravenous, 5 mg/kg, 7 days",reference: vehicle control,protein level decrease,32.4%

# Some of these lines once more:
Substance,target,assay,system,setting,scale,endpoint,value
O=C(O)C(=O)O,cysteine peptide Ac-RFAACAA-COOH,DPRA RapidFire-MS/MS,,"24 h, pH 7.5, with: 5.0 µM cysteine peptide",,peptide depletion,inactive
CCCC[C@H]1CCCCCCc2[nH]c(/C=C3\N=CC(c4ccc[nH]4)=C3OC)cc21,pre-miR-21 RNA,differential scanning fluorimetry,,,"reference: untreated, positive = stabilisation",maximal ΔTm,3.1 °C
O=c1c(O[C@@H]2O[C@H](CO)[C@@H](O)[C@H](O)[C@H]2O)c(-c2ccc(O)c(O)c2)oc2cc(O)cc(O)c12,Sult1a1 (rat),"western blot, measured: SULT1A1","rats, liver","intravenous, 5 mg/kg, 7 days",reference: vehicle control,protein level decrease,32.4%
